Assay results collected from several papers.
Each line is one published result; not all experiments were run side by side.
B1: enzyme L71Q/Y136L (Bradyrhizobium diazoefficiens, UniProt Q45222); chain MIQTERAVQQVLEWGRSLTGFADEHAVEAVRGGQYILQRIHPSLRGTSARTGRDPQDETLIVTFYRELALQFWLDDCNDLGLISPEQLAAVEQALGQGVPCALPGFEGCAVLRASLATLAYDRRDYAQLLDDTRCLSAALRAGHAQAVAAERWSYAEYLHNGIDSIAYANVFCCLSLLWGLDMATLRARPAFRQVLRLISAIGRLQNDLHGCDKDRSAGEADNAVILLLQRYPAMPVVEFLNDELAGHTRMLHRVMAEERFPAPWGPLIEAMAAIRVQYYRTSTSRYRSDAVRGGQRAPA
B2: enzyme C424A (Methanosarcina mazei, UniProt Q8PVB1); chain MSEQRSVPLREHLLALKPCRHGGLIQETSETYGIPENEILDFSANFNPLGSPFDYPENGLNFEDIIKKSCGKLLEYPDNRYVEFREAAARFVGLGVTPQSIVPGNGSTEIVRLVVESVIEKGDKVLLPWPTFGEYEMQCRITGAEPVCPSQEEVNTLPDEVLEEAKILFICNPNNPTGKLRTREELKVLAERCREHKTLLYVDEAFIELSDPSQSVADLPAENNYVFVMRSLTKDFAIPGIRMGFGIAPPAMADILNTARLSWNLGAIANNTGIALLNIEGGIDSPYLKKAREMILKEGETLKAKIDRIRGFEAGEVNVNFILVDVSKFMLNSSELTARLAARGVLVRDCVSFHGLGKNYIRVAVRTEKENDRLIAAIGDVITEWGREQAKNELQHVIEKASEEGIGGRKTCEYYPCHFEGQNATFCFCPFYPCENEKTGGKWIQSSRGGRVWSCVDCHLVHKKEIAQKILDCLMHEGDTDELVKVAWKEVMEPIL
B3: enzyme (Saccharina japonica, UniProt A0A097IUE3); chain QQLGKTASMATVSSLGIDKATGIKNPTTVHRNLPYPEVFEHEVKHKEGEVTSNGTFCVSTGQFTGRSPKDKYFVKQAPSDKNLDWGKVNVGVAPDVFKNIYKKAVKHYNDNVEKMYVFDGYCGTSPKSRKNVRIITELAWQHHFAKNMFIRPESEAEVADFAPDFTIVNACKVVNDDYKELGLNSEVAVVFNVEERKAVITGTWYGGEMKKGIFSMMNYWLPLDGVMAMHCSANKGKNGDTALFFGLSGTGKTTLSADPDRYLIGDDEHGWDDDGIFNFEGGCYAKTINLSHKNEPEIYDAIKKDALLENVIIKGNGDPDYTDVSKTENTRVSYPIYHIDNYEPSGMGGHPNSIVFLTCDAFGVLPPVSRLSAGQAMYHFLSGYTAKVAGTERGVTEPTPNFSACFGAAFLTLHPTAYADLLQKKLDTHGTQCFLINTGWTGGGYGVGKRMSIKATRACVNSVLDGSINKTKFTADPVFGFEVPADLPGVPSKVLNPRDAWSDKESYDTTRTKLAGMFKDNFTKFVKPGVTNYTAYGPK
Chain of UniProt Q8NBN7 (whole entry, looked up): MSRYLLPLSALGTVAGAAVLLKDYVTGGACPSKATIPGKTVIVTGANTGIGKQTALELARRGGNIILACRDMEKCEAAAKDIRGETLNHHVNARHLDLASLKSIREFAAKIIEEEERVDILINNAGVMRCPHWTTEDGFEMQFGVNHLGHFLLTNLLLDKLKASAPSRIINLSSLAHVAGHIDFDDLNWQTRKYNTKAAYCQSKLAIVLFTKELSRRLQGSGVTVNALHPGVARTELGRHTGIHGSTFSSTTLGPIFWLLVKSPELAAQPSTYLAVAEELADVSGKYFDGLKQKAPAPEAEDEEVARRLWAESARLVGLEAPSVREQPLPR
Chain of UniProt Q9S7E4 (whole entry, unmodified, looked up): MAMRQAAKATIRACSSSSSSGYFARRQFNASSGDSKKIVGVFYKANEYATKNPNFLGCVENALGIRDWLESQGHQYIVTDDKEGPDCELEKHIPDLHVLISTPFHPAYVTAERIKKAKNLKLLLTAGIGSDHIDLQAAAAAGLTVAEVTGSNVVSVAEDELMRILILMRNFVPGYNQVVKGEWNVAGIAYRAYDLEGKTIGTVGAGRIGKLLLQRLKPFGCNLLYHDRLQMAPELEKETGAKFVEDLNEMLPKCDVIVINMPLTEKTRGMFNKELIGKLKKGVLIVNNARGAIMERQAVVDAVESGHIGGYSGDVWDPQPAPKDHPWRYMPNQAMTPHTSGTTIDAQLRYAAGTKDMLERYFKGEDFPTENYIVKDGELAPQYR
Chain of UniProt P09546 (whole entry, looked up): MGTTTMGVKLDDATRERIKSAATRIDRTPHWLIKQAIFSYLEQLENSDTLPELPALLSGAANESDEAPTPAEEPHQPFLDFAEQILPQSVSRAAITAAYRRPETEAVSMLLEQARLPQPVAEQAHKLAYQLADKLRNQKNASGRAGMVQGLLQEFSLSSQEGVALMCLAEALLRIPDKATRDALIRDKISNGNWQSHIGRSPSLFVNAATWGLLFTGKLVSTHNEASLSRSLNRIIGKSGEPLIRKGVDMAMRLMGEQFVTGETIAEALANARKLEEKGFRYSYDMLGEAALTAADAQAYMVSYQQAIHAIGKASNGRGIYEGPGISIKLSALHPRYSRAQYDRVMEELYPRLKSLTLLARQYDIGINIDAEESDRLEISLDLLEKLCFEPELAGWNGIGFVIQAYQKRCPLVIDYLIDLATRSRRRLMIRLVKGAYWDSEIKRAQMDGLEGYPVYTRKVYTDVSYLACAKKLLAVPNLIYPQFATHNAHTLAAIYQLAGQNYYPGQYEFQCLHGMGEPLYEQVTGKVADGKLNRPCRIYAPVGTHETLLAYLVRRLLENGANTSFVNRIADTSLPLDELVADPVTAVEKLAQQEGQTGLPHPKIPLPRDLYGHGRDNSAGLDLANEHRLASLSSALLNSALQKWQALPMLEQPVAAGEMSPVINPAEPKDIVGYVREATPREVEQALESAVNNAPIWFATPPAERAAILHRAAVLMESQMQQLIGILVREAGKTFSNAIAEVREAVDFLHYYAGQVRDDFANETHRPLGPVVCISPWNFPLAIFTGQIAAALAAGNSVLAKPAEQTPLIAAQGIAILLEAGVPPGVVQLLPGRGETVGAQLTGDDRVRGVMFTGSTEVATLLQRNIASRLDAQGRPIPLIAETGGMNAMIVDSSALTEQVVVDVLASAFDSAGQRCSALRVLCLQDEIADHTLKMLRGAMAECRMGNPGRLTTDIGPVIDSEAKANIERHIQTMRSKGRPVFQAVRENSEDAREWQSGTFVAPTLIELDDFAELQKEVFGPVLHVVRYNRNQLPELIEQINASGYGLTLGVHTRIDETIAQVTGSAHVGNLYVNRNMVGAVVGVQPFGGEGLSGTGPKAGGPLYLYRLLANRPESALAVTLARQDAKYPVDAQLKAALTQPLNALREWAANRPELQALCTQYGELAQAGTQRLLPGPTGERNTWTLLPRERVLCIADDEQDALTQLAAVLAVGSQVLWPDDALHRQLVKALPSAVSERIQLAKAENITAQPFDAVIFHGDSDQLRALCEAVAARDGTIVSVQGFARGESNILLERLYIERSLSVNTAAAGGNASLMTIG

Substance	target or system	assay	system	conditions	how to read	endpoint	result
GSGAGKETSF	human MAGI1-2/6 PDZ construct (MBP fusion)	automated holdup	peptide, crude extract	concentration not given, uncorrected, unit not given	relative to: biotin control resin, higher = stronger binding	binding intensity	0.0474
enzyme (UniProt Q83XK4)	NC(=O)C1=CN([C@@H]2O[C@H](COP(=O)(O)OP(=O)(O)OC[C@H]3O[C@@H](n4cnc5c(N)ncnc54)[C@H](O)[C@@H]3O)[C@@H](O)[C@H]2O)C=CC1	steady-state kinetics	–	pH 7, 30 °C, cofactor varied	–	Km	24.8 µM
GGLQWIPRA	Jurkat T cells expressing 1G4 TCR	NFAT-eGFP reporter, fluorescence microscopy	peptide	concentration not given, HLA-A*02:01 NY-ESO system	–	reporter activation	0.0126%
putA (Escherichia coli, UniProt P09546)	CC1=CC(=O)c2ccccc2C1=O	steady-state kinetics	–	pH 7.4, 20 °C, together with: proline 200 mM	–	Km	79 µM
enzyme (Populus trichocarpa, UniProt A0A2K2BRQ9)	O=C(OCc1ccccc1)c1ccccc1O	steady-state kinetics	–	pH 7, 25 °C	–	Km	37 µM
B1 (enzyme L71Q/Y136L)	C=C1CC[C@@H]2C(C)(C)CCC[C@@]2(C)[C@@H]1CC/C(C)=C/COP(=O)(O)OP(=O)(O)O	steady-state kinetics	–	–	–	Km	8.96 µM
RDH13 (Homo sapiens, UniProt Q8NBN7)	CC1=C(/C=C/C(C)=C/C=C/C(C)=C/C=O)C(C)(C)CCC1	steady-state kinetics	–	pH 7.4, 37 °C	–	Km	35 µM
GSGAGPETLV	human MAGI1-2/6 PDZ construct (MBP fusion)	automated holdup	peptide, crude extract	concentration not given, uncorrected, unit not given	relative to: biotin control resin, higher = stronger binding	binding intensity	0.326
enzyme (Parabacteroides distasonis, UniProt A0A7L5EB83)	CC(=O)N[C@H]1[C@H](Oc2ccc([N+](=O)[O-])cc2)O[C@H](CO)[C@@H](O[C@@H]2O[C@H](CO)[C@H](O)[C@H](O)[C@H]2O)[C@@H]1O	steady-state kinetics	–	pH 6, 50 °C	–	Km	1770 µM
enzyme (Mycobacteroides abscessus, UniProt B1MGE0)	C/C(=C\C=C(/O)C(=O)O)C(=O)CC[C@@H]1C(=O)CC[C@]2(C)C(=O)CC[C@@H]12	steady-state kinetics	–	pH 7.5, 25 °C	–	Km	8 µM
B2 (enzyme C424A)	Nc1ncnc2c1ncn2[C@@H]1O[C@H](COP(=O)(O)OP(=O)(O)OP(=O)(O)O)[C@@H](O)[C@H]1O	steady-state kinetics	–	pH 8.5, 25 °C, apparent, anoxic, together with: L-Thr 10 mM	–	Km	171 µM
B3 (enzyme)	Nc1ncnc2c1ncn2[C@@H]1O[C@H](COP(=O)(O)OP(=O)(O)O)[C@@H](O)[C@H]1O	steady-state kinetics	–	pH 6.5, 25 °C, together with: 16 mM PEP	–	Km	80 µM
FDH1 (Arabidopsis thaliana, UniProt Q9S7E4)	O=CO	steady-state kinetics	–	pH 7.5, 30 °C	–	Km	4110 µM

Excerpt of the above:
Substance	target or system	assay	system	conditions	how to read	endpoint	result
enzyme (UniProt Q83XK4)	NC(=O)C1=CN([C@@H]2O[C@H](COP(=O)(O)OP(=O)(O)OC[C@H]3O[C@@H](n4cnc5c(N)ncnc54)[C@H](O)[C@@H]3O)[C@@H](O)[C@H]2O)C=CC1	steady-state kinetics	–	pH 7, 30 °C, cofactor varied	–	Km	24.8 µM
